Measured values pooled from the literature.
“And” joins repeats or separate records; there may be more than shown. ± gives the spread as reported.

For O=C(O)CSc1nnc(Br)n1-c1ccc(C2CC2)c2ccccc12, the serum creatinine was 35.4 µM and 61.8 µM and 33.8 µM and 34.6 µM and 44.8 µM and 54.4 µM (mouse, chronic hyperuricaemia model, serum; dose not given).
For NC(=O)c1cnc2[nH]ccc2c1N[C@@H]1[C@@H]2CC3C[C@H]1C[C@@](O)(C3)C2, the percent change was 0.62% (CD4+ memory T cells, flow cytometry; Japanese humans, peripheral blood; 200 mg single dose; relative to: baseline).
The Iba1-positive area of O=P(O)(O)C(Cl)(Cl)P(=O)(O)O is reported as 0.42% and 0.64% and 0.33% (Mus musculus, sham-operated, hippocampal fissure; concentration not given, day 1; relative to: total area).
CN[C@@H]1COc2c(S(=O)(=O)NC(=O)Nc3c4c(cc5c3CCC5)CCC4)cnn2C1 gave an inhibition of 101% (measured: IL-18; human participants, whole blood ex vivo; 900 mg twice daily, multiple doses, 148 h, IL-18, circulating, adjusted for, added: LPS/ATP; relative to: baseline).
The median inhibition of N#CC[C@H](C1CCCC1)n1cc(-c2ncnc3[nH]ccc23)cn1 is reported as 46.3% (phosphoflow cytometry, measured: pSTAT5; patients, patient plasma; dose not given, C1D15 steady-state trough).
For N#Cc1ccc2c(-c3ccncc3)c(-c3ccc(F)cc3)nn2c1, “log2 fold change” read -0.134 (kinase binding, competitor, MIB/MS competition, measured: FPK1; Candida albicans cell lysate; 10 µM; relative to: DMSO).
For O=C(NS(=O)(=O)c1ccccc1)c1cc2ccccc2n1Cc1ccc(Br)c2ccccc12, “serum uric acid” read 636 µM and 214 µM and 285 µM and 583 µM and 226 µM and 291 µM (mouse, acute hyperuricemia model; dose not given).
FC(F)(F)Oc1cccc(-c2cnc3ccc(-c4ccncc4)nn23)c1 gave a tumour size of 0.211 a.u. and 0.126 a.u. and 0.148 a.u. and 0.225 a.u. and 0.172 a.u. and 0.272 a.u. and 0.184 a.u. (MDA-MB-231 xenograft, NSG mouse; oral, 10 mg/kg daily, day 17; higher = larger tumour).
For COc1cc2cc(-c3ccc(CC(=O)Nc4cc(C(C)(C)C(F)(F)F)no4)cn3)cnc2cc1OC, “disease control rate” read 100% (RECIST v1.1; RET-altered advanced solid tumour patients; oral, 10 mg once daily, phase I).
Under “tracer distribution volume”, O=C(OC(C(F)(F)F)C(F)(F)F)N1CCN(Cc2cccc(Oc3ccccc3)c2)CC1 is recorded as 1.32 mL/cm3 (PET; rhesus monkey, cerebellum; intravenous, 0.3 mg/kg, pretreatment, added: [18F]T-401).
The plasma C4 of CCCCC1(CCCC)CN(c2ccccc2)c2cc(SC)c(OCC(=O)N[C@@H](C(=O)NCC(=O)O)c3ccccc3)cc2S(=O)(=O)C1 is reported as 57.8 ng/mL (measured: 7α-hydroxy-4-cholesten-3-one; human, plasma; 10 mg once daily, day 5).
With C[C@H](NC(=O)c1c(C(F)F)nn(C)c1Oc1cccc(C(F)(F)F)c1)c1ccc(C(=O)O)cc1 the complete response was 0% (human, advanced tumours; 250 mg, irRECIST).
With N#Cc1ccc2c(c1)[C@H]1CCCN(C(=O)c3ccc4[nH]cnc4c3)[C@H]1C2 the plasma 1,5-anhydroglucitol was 13.9 µg/mL (T2DM patients with overweight or obesity, plasma; oral, 20 mg, day 15 (360 h), multiple dosing, mean).
C[C@H]1C[C@H]2CSC(N)=N[C@@]2(c2nc(NC(=O)c3ccc(OC(F)F)cn3)cs2)CO1 — result for “percent change from baseline”: -69.7% (measured: Aβx-40; healthy adults, plasma; 200 mg single dose, 24 h post-dose; relative to: placebo).
The hazard ratio of COc1cc2nccc(Oc3ccc(NC(=O)c4cc5c(n(-c6ccccc6)c4=O)CCCC5=O)nc3)c2cc1OC is reported as 0.181 (MOLM-13 luc/GFP, mouse xenograft AML; in feed, 0.013% in feed; relative to: compound over control).
For OC[C@H]1O[C@@H](c2ccc(Cl)c(Cc3ccc(O[C@H]4CCOC4)cc3)c2)[C@H](O)[C@@H](O)[C@@H]1O, “systolic blood pressure change” read -0.4 mmHg (Japanese type 1 diabetes patients; 25 mg, day 7, 168 h; relative to: baseline).
Under “average body weight”, COc1cc(O)c(CC=C(C)C)c(O)c1C(=O)/C=C/c1ccc(O)cc1 is recorded as “decreased” (male Tac:SW conventional mice; in high-fat diet, dose not given, 5 weeks, not statistically significant; relative to: high-fat diet alone).
For COc1ncc(-c2nc3c(n2C(C)C)[C@H](c2ccc(Cl)cc2)N(c2cc(Cl)cn(C)c2=O)C3=O)c(OC)n1, “best overall response” read 7.4% (International Working Group criteria; human acute myeloid leukemia patients; oral, 45 mg, response CR, low-dose, recommended dose for expansion).
For c1ccc(-c2cc(-c3ccccc3)n(Cn3ccnc3)n2)cc1, the wound size was 13.3 mm (rat, STZ-nicotinamide diabetic; 75 mg/kg, 360 h, full-thickness excision wound).
Cc1nc(-c2ccc(OCC(C)C)c(C#N)c2)sc1C(=O)O — result for “serum uric acid”: 178 µM (male mouse, acute hyperuricaemia model, serum; oral, 2 mg/kg, 4 h).
CC(C)c1c(C(=O)Nc2ccccc2)c(-c2ccccc2)c(-c2ccc(F)cc2)n1CC[C@@H](O)C[C@@H](O)CC(=O)O: “plasma PCSK9 change” -12.8% (ELISA; cynomolgus monkey, male, plasma; 40 mg/kg or 25 mg/kg, day 176; relative to: pretreatment).
With O=C(O[C@@H]1[C@@H](O)[C@H](Oc2cc(O)c3c(c2)O[C@H](c2ccccc2)CC3=O)O[C@@H]2COC(=O)c3cc(O)c(O)c(O)c3-c3c(cc(O)c(O)c3O)C(=O)O[C@@H]12)c1cc(O)c(O)c(O)c1 the fibrin fluorescence was 33.4 ± 7.53% (mouse, laser-injury thrombosis, cremaster arterioles; intraperitoneal, 25 µg/g; relative to: control).
N#CCC1CCN(c2nc(Nc3ccc(N4CCC(O)CC4)cc3)c3c(=O)[nH]ncc3n2)CC1: “osteopontin level change” -1.05 (Olink multiplex; human, serum; 20 mg, day 15, unit not given; relative to: baseline).
CC(=O)Oc1cc2c(s1)CCN(C(C(=O)C1CC1)c1ccccc1F)C2 (centres unmarked): “patients with IPA above threshold” 4.8% (platelet aggregation, light transmittance aggregometry; human, platelet-rich plasma; dose not given, 4 to 6 h, IPA above 90 %, added: ADP 20 µM; relative to: patients).
With NS(=O)(=O)c1cc(C(=O)O)c(NCc2ccco2)cc1Cl the IC15 was > 100 µM (barrier function (TEER); human ileal GI microtissue EpiIntestinal-FT).
Cc1n[nH]c2ccc(-c3cc(OC[C@@H](N)Cc4ccccc4)cnc3-c3ccoc3)cc12 — result for “log2 fold change”: -1.17 (kinase binding, competitor, MIB/MS competition, measured: CKA2; Candida albicans cell lysate; 10 µM; relative to: DMSO).
Cc1cc(-c2nc(C(=O)Nc3cc4oc(N5CCOCC5)nc4nc3N3CC[C@@H](O)C3)co2)ccn1: Ki67 expression “decreased” (immunohistochemistry; mouse, intracranial B16-F10 melanoma; high dose, day 7; relative to: vehicle).
C[C@H](Oc1ccc(Br)cc1-c1ccon1)C(=O)O: “difference from placebo” -8.68% (last response peak; human, tibialis anterior muscle; 1200 mg, 30 Hz, single ascending dose).
OC(CCN1CCCCC1)(c1ccccc1)C1CC2C=CC1C2 (centres unmarked): “change in EEG Alpha1-power Pz-O2” 9.3% (resting-state EEG; healthy elderly humans; oral, 2 mg, eyes open, LS mean; relative to: baseline).
O=C(c1ccc(OCCN2CCCCC2)cc1)c1c(-c2ccc(O)cc2)sc2cc(O)ccc12 — result for “paw licking time”: 0 s (male ICR-CD1 mice, formalin test; intracerebroventricular, 100 µg/animal, 25 to 30 min).
For COc1cc(-c2ccccc2)ncc1C(=O)Nc1ccc2c(=O)[nH]c(-c3ccc(C(C)(C)O)cc3)nc2c1, “normalized enrichment score” read -1.97 (RNA-seq GSEA, measured: FALLER_ENTEROCYTE_PRO_MOUSE; organoids, small intestinal, Apc Q1405X, mouse; dose not given, knockout organoids; relative to: DMSO, direction not given).
For CC(C)NCC(O)c1ccc(O)c(O)c1 (centres unmarked), the sarcomere length was 1.68 µm (ventricular cardiomyocytes, C57BL/6 mouse; dose not given, 0.456 s).
CC(=O)O[C@H]1C(=O)[C@@]2(C)[C@H]([C@H](OC(=O)c3ccccc3)[C@]3(O)C[C@H](OC(=O)[C@H](O)[C@@H](NC(=O)c4ccccc4)c4ccccc4)C(C)=C1C3(C)C)[C@]1(OC(C)=O)CO[C@@H]1C[C@@H]2O gave a tumour volume of 0.05 ± 0.01 cm3 (rat, DMBA-induced mammary tumour, mammary tumour; dose not given, day 0).
[Cl-].[Cl-].[Pt+2].[Ru+2].c1ccc(-c2nc3ccccc3nc2-c2ccccn2)nc1.c1cnc2c(c1)ccc1cccnc12.c1cnc2c(c1)ccc1cccnc12 — result for “activation free energy”: 99 ± 6 kJ/mol (chloride substitution, UV-vis kinetics; aqueous buffer; pH 7.2, 35 °C, second substitution step, added: L-methionine).
COc1cc(Nc2ncc3c(n2)-c2ccc(Cl)cc2C(c2c(F)cccc2OC)=NC3)ccc1C(=O)O — result for “relative tumour volume T/C”: 1.26 (mouse, OS-1 osteosarcoma xenograft; oral, 20.8 mg/kg, day 21; relative to: vehicle).
CC(=O)NCC(=O)NCC(=O)N[C@H](C(=O)N[C@@H](Cc1ccc(O)cc1)C(=O)N[C@@H](CO)C(=O)N[C@H]1CSSC[C@@H](C(=O)N[C@@H](CCCNC(=N)N)C(=O)N2CCC[C@H]2C(=O)N[C@@H](CCC(N)=O)C(=O)N[C@@H](CCCNC(=N)N)C(=O)NCC(=O)NCCC(=O)N[C@@H](CCCCNC(=O)CN(CC(=O)NCCCC[C@H](NC(=O)CCNC(=O)CNC(=O)[C@H](CCCNC(=N)N)NC(=O)[C@H](CCC(N)=O)NC(=O)[C@@H]2CCCN2C(=O)[C@H](CCCNC(=N)N)NC(=O)[C@@H]2CSSC[C@H](NC(=O)[C@H](CO)NC(=O)[C@H](Cc3ccc(O)cc3)NC(=O)[C@@H](NC(=O)CNC(=O)CNC(C)=O)[C@@H](C)O)C(=O)N[C@@H](Cc3c[nH]cn3)C(=O)N[C@@H](Cc3ccccc3)C(=O)NCC(=O)N[C@@H](C)C(=O)N[C@@H](CC(C)C)C(=O)N[C@@H]([C@@H](C)O)C(=O)N[C@@H](Cc3c[nH]c4ccccc34)C(=O)N[C@@H](C(C)C)C(=O)N2)C(N)=O)C(=O)CCN)C(N)=O)NC(=O)[C@H](C(C)C)NC(=O)[C@H](Cc2c[nH]c3ccccc23)NC(=O)[C@H]([C@@H](C)O)NC(=O)[C@H](CC(C)C)NC(=O)[C@H](C)NC(=O)CNC(=O)[C@H](Cc2ccccc2)NC(=O)[C@H](Cc2c[nH]cn2)NC1=O)[C@@H](C)O gave a haemoglobin of 144 g/L (healthy BALB/c mice; subcutaneous, 0.16 mg/kg, 8 d, single dose).
[Cl-].[Cl-].[Pt+2].[Ru+2].c1ccc(-c2nc3cc4ccccc4cc3nc2-c2ccccn2)nc1.c1cnc2c(c1)ccc1cccnc12.c1cnc2c(c1)ccc1cccnc12: “activation free energy” 79 ± 4 kJ/mol (chloride substitution, UV-vis kinetics; aqueous buffer; pH 7.2, 35 °C, second substitution step, added: L-methionine).
For CN(C)C(=O)c1cc2cnc(Nc3ccc(N4CCNCC4)cn3)nc2n1C1CCCC1, “normalized enrichment score” read 2.54 (RNA-seq GSEA, measured: HALLMARK_MYC_TARGETS gene set; MB002 tumour; concentration not given; relative to: vehicle, direction not given).
Under “log2 fold change”, c1ccc(-c2n[nH]cc2-c2ccnc3ccccc23)nc1 is recorded as 1.09 (kinase binding, competitor, MIB/MS competition, measured: CTK1; Candida albicans cell lysate; 10 µM; relative to: DMSO).
Under “serum uric acid”, CC(C)(O)c1coc(S(=O)(=O)NC(=O)c2cc3ccccc3n2Cc2ccc(C3CC3)c3ccccc23)c1 is recorded as 327 ± 64.9 µM (male mouse, acute hyperuricaemia model, serum; oral, 2 mg/kg, 4 h).
The two-cell embryos of O=S(=O)(NCCNC/C=C/c1ccc(Br)cc1)c1cccc2cnccc12 is reported as 35.3% and 15% (embryonic development; mouse zygotes; 20 µM, 120 h post-hCG).
For O=C(O)CNC(=O)Cc1ccccc1, the sarcomere length was 1.72 µm (ventricular cardiomyocytes, C57BL/6 mouse; dose not given, 0.408 s).
For CCN1/C(=C/C(C)=O)Sc2ccc(F)cc21, “paw withdrawal threshold” read “no effect” (von Frey test; α2B adrenoceptor knockout mice, burn injury pain, burn-injured hind paw; 10 mg/kg).
For C[C@@H](NC(=O)N1C(=O)[C@H](Cc2ccnc(N)c2)[C@H]1C(=O)O)C1CCCCC1, “time to ACT Emax” read 96 h (human; iv infusion, 1.0 mg/kg/h, 24 h).
O=C(NS(=O)(=O)c1cccc(Br)c1)c1cc2ccccc2n1Cc1ccc(Br)c2ccccc12 — result for “serum uric acid”: 386 µM and 458 µM and 738 µM and 618 µM and 314 µM and 238 µM and 476 µM (mouse, acute hyperuricemia model; dose not given).
CC[C@@H]1[C@H](F)C(=O)N[C@@H]1COc1nccc2cc(C(N)=O)c(OC)cc12 gave an inhibition of -0.8% (ATP-site probe binding, ActivX profiling, measured: PCTAIRE1, PCTAIRE3; THP-1 cell lysate; 0.2 mM, Lys2 site).
CCN1CCN(Cc2ccc(Nc3ncc(F)c(-c4cc(F)c5nc6n(c5c4)[C@H](C)CCC6)n3)nc2)CC1 has a complete response of 0% (human advanced solid tumours; 300 mg, phase Ia monotherapy RECIST 1.1).
